Measurements collected from several papers.
Parts stem from different laboratories: compare values within a part only.
Sequence of UniProt Q00535 (whole entry, looked up): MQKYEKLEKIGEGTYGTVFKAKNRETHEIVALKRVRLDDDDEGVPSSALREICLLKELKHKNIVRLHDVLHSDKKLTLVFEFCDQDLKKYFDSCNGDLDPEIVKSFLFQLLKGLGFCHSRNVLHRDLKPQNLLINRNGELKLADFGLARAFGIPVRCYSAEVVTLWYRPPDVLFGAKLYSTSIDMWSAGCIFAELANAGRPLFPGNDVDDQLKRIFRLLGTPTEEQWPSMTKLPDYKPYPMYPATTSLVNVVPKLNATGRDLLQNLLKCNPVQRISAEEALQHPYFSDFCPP
Sequence of UniProt O94804 (whole entry, looked up): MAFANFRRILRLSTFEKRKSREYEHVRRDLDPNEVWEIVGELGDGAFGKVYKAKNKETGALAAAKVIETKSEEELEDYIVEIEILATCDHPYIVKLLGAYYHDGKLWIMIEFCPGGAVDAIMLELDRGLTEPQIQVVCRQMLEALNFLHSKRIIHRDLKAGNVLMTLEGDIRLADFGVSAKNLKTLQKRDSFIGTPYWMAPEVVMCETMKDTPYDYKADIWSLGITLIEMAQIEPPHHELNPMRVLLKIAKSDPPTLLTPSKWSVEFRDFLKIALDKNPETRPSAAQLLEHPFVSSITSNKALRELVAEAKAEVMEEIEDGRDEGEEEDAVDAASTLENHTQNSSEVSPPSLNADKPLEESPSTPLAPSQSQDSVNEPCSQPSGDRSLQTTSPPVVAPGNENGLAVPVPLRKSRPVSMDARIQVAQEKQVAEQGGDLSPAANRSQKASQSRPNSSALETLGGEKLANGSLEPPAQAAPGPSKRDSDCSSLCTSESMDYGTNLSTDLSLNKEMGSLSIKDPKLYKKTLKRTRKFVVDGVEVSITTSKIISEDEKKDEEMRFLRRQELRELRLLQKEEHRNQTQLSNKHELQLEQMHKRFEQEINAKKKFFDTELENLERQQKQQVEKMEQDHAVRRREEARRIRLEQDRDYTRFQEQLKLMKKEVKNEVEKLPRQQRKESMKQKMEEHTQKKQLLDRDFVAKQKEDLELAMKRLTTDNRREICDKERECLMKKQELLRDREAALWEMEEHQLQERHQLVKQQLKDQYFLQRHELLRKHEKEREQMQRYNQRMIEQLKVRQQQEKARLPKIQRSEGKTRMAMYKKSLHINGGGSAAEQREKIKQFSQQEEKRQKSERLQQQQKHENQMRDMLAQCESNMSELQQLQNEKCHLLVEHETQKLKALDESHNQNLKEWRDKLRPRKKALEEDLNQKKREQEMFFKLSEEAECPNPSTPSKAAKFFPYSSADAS
Sequence of UniProt Q9C098 (whole entry, looked up): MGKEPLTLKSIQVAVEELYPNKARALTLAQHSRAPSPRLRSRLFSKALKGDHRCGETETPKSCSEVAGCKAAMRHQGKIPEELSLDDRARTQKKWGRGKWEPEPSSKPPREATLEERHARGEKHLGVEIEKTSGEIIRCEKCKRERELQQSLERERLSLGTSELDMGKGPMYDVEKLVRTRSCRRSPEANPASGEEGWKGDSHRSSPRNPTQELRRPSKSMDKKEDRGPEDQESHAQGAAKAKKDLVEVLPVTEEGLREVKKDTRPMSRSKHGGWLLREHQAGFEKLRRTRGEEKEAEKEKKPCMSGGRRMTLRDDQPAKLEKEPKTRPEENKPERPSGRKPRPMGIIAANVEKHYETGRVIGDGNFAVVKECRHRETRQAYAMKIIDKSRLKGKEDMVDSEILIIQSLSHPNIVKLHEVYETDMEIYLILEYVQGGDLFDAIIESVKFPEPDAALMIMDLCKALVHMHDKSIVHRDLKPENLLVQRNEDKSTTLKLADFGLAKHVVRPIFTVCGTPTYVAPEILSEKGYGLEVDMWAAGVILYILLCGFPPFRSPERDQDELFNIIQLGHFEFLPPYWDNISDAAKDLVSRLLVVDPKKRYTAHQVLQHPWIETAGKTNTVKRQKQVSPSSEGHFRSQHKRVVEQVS
Sequence of UniProt P36897 (whole entry, looked up): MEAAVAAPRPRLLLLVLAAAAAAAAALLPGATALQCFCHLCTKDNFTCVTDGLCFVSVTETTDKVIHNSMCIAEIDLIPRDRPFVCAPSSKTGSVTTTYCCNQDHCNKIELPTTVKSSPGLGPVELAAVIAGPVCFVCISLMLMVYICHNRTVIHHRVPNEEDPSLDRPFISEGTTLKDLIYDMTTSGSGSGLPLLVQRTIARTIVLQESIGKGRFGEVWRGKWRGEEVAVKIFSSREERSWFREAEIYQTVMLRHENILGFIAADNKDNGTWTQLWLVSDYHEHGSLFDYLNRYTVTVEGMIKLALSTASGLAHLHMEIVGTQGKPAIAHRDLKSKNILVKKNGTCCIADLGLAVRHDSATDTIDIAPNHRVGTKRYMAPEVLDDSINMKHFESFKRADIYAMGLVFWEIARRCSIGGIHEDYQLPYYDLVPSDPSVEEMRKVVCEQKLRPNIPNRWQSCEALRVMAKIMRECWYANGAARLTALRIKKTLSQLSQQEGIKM
Sequence of UniProt P21917 (whole entry, looked up): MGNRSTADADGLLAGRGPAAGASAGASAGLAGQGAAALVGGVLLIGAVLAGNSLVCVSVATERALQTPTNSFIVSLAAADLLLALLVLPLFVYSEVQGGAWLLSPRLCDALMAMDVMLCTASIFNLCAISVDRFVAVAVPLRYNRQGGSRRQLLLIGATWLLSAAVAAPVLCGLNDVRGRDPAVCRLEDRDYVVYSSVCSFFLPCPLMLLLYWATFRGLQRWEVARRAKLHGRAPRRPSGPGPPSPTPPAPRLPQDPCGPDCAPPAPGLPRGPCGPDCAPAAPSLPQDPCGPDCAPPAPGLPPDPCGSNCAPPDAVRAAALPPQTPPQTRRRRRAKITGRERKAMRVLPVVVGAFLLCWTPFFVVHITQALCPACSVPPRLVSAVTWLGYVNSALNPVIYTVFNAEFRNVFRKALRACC
Sequence of UniProt Q9UIK4 (whole entry, looked up): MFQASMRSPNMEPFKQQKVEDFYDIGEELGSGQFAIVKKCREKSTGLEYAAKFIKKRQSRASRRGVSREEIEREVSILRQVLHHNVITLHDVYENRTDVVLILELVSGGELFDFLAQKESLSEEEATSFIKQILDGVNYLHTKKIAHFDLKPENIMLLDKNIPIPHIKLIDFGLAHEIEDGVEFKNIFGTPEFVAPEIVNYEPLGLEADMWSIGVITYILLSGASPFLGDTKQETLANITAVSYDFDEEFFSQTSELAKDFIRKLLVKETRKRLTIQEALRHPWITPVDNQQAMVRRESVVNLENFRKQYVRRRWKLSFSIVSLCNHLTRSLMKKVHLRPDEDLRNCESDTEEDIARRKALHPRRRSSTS
Sequence of UniProt O14920 (whole entry, looked up): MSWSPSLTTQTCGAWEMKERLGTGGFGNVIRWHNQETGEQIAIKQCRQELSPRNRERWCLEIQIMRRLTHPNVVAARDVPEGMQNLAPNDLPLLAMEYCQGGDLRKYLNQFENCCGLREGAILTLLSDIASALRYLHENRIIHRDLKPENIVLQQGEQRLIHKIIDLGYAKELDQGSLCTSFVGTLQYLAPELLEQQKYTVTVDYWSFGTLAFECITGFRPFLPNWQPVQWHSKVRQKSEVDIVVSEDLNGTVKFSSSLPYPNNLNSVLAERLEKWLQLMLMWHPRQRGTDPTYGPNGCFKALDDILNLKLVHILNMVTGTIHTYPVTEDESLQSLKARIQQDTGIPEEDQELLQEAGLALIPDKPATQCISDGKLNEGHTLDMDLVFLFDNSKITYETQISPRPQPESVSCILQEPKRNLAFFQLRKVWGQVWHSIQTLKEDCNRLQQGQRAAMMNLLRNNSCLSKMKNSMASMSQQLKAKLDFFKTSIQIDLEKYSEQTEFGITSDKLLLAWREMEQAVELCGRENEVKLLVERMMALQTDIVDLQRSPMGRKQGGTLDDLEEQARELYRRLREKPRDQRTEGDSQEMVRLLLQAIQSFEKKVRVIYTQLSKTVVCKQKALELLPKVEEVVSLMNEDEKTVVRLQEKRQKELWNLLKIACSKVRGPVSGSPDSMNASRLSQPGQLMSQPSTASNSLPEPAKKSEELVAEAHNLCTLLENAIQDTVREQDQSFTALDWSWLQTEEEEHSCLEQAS
Sequence of UniProt P32298 (whole entry, looked up): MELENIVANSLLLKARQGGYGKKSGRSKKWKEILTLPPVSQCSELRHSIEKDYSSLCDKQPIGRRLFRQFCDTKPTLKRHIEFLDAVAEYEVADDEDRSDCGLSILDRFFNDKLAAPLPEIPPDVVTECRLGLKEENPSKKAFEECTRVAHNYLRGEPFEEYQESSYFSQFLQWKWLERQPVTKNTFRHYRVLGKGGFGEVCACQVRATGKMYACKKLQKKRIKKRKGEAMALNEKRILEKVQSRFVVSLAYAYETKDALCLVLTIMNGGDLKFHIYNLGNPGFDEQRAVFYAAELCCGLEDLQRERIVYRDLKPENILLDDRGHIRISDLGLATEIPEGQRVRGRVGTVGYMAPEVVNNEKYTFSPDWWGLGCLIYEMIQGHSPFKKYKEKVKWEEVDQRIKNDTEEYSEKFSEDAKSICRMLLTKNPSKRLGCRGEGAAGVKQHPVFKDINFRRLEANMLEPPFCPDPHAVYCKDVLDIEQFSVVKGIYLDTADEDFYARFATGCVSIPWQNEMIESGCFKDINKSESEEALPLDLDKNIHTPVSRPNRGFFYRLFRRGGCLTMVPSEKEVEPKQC
Sequence of UniProt Q15831 (whole entry, looked up): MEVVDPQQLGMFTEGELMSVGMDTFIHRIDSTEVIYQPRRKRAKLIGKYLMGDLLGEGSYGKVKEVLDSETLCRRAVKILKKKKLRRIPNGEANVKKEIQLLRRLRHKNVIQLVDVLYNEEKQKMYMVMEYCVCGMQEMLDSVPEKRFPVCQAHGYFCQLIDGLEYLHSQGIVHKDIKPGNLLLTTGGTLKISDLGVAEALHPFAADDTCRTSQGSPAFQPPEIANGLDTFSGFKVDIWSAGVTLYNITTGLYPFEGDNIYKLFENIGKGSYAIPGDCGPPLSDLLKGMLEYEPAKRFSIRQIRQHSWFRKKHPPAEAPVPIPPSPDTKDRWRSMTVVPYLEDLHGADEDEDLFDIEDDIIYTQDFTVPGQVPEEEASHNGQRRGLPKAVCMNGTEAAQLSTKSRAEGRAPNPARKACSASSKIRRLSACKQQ

Sample 1 — observed: enzyme activity; mode: inhibitor; tested at: 0.5 µM; relative to: control
Structure (SMILES): O=Nc1c(-c2c(O)[nH]c3cc(Br)ccc23)[nH]c2ccccc12
| target | remaining activity |
| --- | --- |
| Tyrosine-protein kinase Lyn, isoform B (LYN, Homo sapiens, UniProt P07948) | 14.7% |
| MAP3K3 (Homo sapiens, UniProt Q99759) | 107% |
| Cyclin-dependent kinase 5, with p25 (CDK5, Homo sapiens, UniProt Q00535) | 20.4% |
| TGFBR1 (Homo sapiens, UniProt P36897) | 99.8% |
| STK39 (Homo sapiens, UniProt Q9UEW8) | 104% |
| CHEK2 (Homo sapiens, UniProt O96017) | 48.3% |
| PRKACA (Homo sapiens, UniProt P17612) | 106% |
| MAPK9 (Homo sapiens, UniProt P45984) | 80.3% |
| Cyclin-dependent kinase 4, with cyclin D1 (CDK4, Homo sapiens, UniProt P11802) | 93.4% |
| TGFBR2 (Homo sapiens, UniProt P37173) | 106% |
| STK10 (Homo sapiens, UniProt O94804) | 52.8% |
| DAPK1 (Homo sapiens, UniProt P53355) | 90% |
| CAMK2D (Homo sapiens, UniProt Q13557) | 23% |
| IKBKE (Homo sapiens, UniProt Q14164) | 66.3% |
| GRK3 (Homo sapiens, UniProt P35626) | 104% |
| STK11 (Homo sapiens, UniProt Q15831) | 42.1% |
| IKBKB (Homo sapiens, UniProt O14920) | 85.4% |
| DAPK2 (Homo sapiens, UniProt Q9UIK4) | 91% |
| cGMP-dependent protein kinase 1, isoform beta (PRKG1, Homo sapiens, UniProt Q13976) | 93.6% |
| Protein kinase C beta type, isoform beta-I (PRKCB, Homo sapiens, UniProt P05771) | 98.5% |
| OXSR1 (Homo sapiens, UniProt O95747) | 100% |
| NEK2 (Homo sapiens, UniProt P51955) | 95.5% |
| CAMKK2 (Homo sapiens, UniProt Q96RR4) | 70.1% |

Sample 2 — method: PRP chromatography; setting: linear fit, 1 mL
| SMILES | logD 1,9-decadiene/water |
| --- | --- |
| CC(C)C[C@@H]1NC(=O)[C@H](CC(C)C)NC(=O)[C@@H](CC(C)C)NC(=O)[C@@H](CC(C)C)NC(=O)[C@@H](CCC(=O)N2CCCC2)NC(=O)[C@H](CC(C)C)NC(=O)[C@@H](CC(C)C)NC1=O | 1.03 log units |
| CC(C)C[C@@H]1NC(=O)[C@H](CC(C)C)NC(=O)[C@@H](CC(C)C)NC(=O)[C@H](CC(C)C)NC(=O)[C@H](C(C)C)NC(=O)[C@H](C)NC(=O)[C@H](C)NC1=O | -0.684 log units |
| CC(C)C[C@@H]1NC(=O)[C@H](CC(C)C)NC(=O)[C@@H](CC(C)C)NC(=O)[C@H](CC(C)C)NC(=O)[C@H](C(C)C)NC(=O)[C@H](Cc2cscn2)NC(=O)[C@H](C)NC1=O | -0.172 log units |
| CC(C)C[C@@H]1NC(=O)[C@@H](C)NC(=O)[C@H](C)NC(=O)[C@@H](CC(C)C)NC(=O)[C@H](C(C)C)NC(=O)[C@H](CC(C)C)NC(=O)[C@@H](CC(C)C)NC1=O | -0.616 log units |

Sample 3 — species: mouse; matrix: microsomes or S9; tested at: 2 µM; time: 0.5 h
| Compound | remaining compound [%] |
| --- | --- |
| Cc1nc2[nH]nc(N)c2c(C)c1-c1cnn(CCC(C)C)c1 | 77 |
| CC1=NOC(C)(CNC(=O)c2cc(C)ccc2C)C1 (stereo not drawn) | 75 |
| O=C(Cn1c(=O)n2nc(-c3cccnc3)nc2c2c3c(sc21)CCC3)NCc1ccco1 | 53.9 |
| CN(C(=O)c1cc2c(s1)-c1ccsc1CC2)C1CCCCC1 | 0.127 |
| O=C1CCc2cc(Cl)ccc2N1Cc1ccc(Cl)cc1Cl | 48.2 |
| CCn1ccc(C(=O)N2C[C@@H](F)C[C@H]2Cn2cc(C(N)=O)nn2)n1 | > 100 |

Sample 4 — SMILES: CCN(c1nc(N)c(C(=O)N=C(N)N)nc1Cl)C(C)C; observed: β-arrestin recruitment; mode: agonist; method: PRESTO-Tango; tested at: 10 µM; relative to: untreated
| target | fold over basal |
| --- | --- |
| GRM8 (Homo sapiens, UniProt O00222) | 0.74 fold |
| Trace amine-associated receptor 6 (TAAR6, Homo sapiens, UniProt Q96RI8) | 0.84 fold |
| CHRM5 (Homo sapiens, UniProt P08912) | 0.96 |
| DRD4 (Homo sapiens, UniProt P21917) | 0.96 |
| MRGPRX2 (Homo sapiens, UniProt Q96LB1) | 0.83 |

Sample 5 — observed: binding; tested at: 1 µM
SMILES: COc1ccc2[nH]c3c4[nH]c5ccc(OC)cc5c4c4c(c3c2c1)C(=O)NC4=O
| target | method | remaining binding [%] |
| --- | --- | --- |
| TRPM6 (Homo sapiens, UniProt Q9BX84) |  | 79 |
| MKNK1 (Homo sapiens, UniProt Q9BUB5) | competition with immobilised ligand | 92 |
| MINK1 (Homo sapiens, UniProt Q8N4C8) | competition with immobilised ligand | 1.7 |
| NTRK3 (Homo sapiens, UniProt Q16288) | competition with immobilised ligand | 47 |
| GRK4 (Homo sapiens, UniProt P32298) |  | 100 |

Sample 6 — observed: cell-free assay; method: competition with immobilised ligand; tested at: 1 µM
SMILES: CCC(=O)N[C@H]1CC[C@@H](C(=O)N(C)c2ccc(-c3nc4ccccc4o3)cc2)C1
| target | remaining binding [%] |
| --- | --- |
| DCLK3 (Homo sapiens, UniProt Q9C098) | 87 |
| PRKD2 (Homo sapiens, UniProt Q9BZL6) | 100 |
| CSNK1G2 (Homo sapiens, UniProt P78368) | 100 |
| PAK6 (Homo sapiens, UniProt Q9NQU5) | 100 |
| PIK3CD (Homo sapiens, UniProt O00329) | 100 |

Excerpt of the above (sample 1):
| target | remaining activity |
| --- | --- |
| STK10 (Homo sapiens, UniProt O94804) | 52.8% |
| IKBKE (Homo sapiens, UniProt Q14164) | 66.3% |
| GRK3 (Homo sapiens, UniProt P35626) | 104% |
| OXSR1 (Homo sapiens, UniProt O95747) | 100% |
| DAPK2 (Homo sapiens, UniProt Q9UIK4) | 91% |
| CHEK2 (Homo sapiens, UniProt O96017) | 48.3% |
| Protein kinase C beta type, isoform beta-I (PRKCB, Homo sapiens, UniProt P05771) | 98.5% |
| MAPK9 (Homo sapiens, UniProt P45984) | 80.3% |
